Measurements collected from several papers.
MAPK9: Mitogen-activated protein kinase 9 (MAPK9, Homo sapiens, UniProt P45984)
Chain of UniProt P45984 (whole entry, looked up): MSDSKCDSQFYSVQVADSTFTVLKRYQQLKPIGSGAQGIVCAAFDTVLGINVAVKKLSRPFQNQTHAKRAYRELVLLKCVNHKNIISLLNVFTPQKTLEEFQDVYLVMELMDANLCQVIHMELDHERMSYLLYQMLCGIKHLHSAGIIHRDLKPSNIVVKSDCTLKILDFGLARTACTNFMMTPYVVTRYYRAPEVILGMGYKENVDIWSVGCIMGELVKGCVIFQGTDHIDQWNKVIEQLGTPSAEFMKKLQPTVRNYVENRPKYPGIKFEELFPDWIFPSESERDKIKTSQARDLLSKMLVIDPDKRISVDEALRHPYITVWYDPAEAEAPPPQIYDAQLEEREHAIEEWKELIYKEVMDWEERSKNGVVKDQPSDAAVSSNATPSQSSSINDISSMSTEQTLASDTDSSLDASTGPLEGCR

| SMILES | target | test | test system | setting | how to read | endpoint | value |
| --- | --- | --- | --- | --- | --- | --- | --- |
| CN1CC(Oc2cnc(C#N)cc2-c2ccn3nc(NC(=O)C4CC4)cc3c2)C1 | Mitogen-activated protein kinase 9, isoform alpha2 (MAPK9, Homo sapiens, UniProt P45984) | kinase activity, inhibitor | – | 1 µM, together with: ATP 45 µM | – | inhibition | -4% |
| O=C1NC(=O)/C(=C/c2ccc(-c3ccc(F)cc3O)o2)S1 | MAPK9 | enzyme activity | – | 10 µM | – | remaining activity | 85% |
| C1=C/COCc2cc(ccc2OCCN2CCCC2)Nc2nccc(n2)-c2cccc(c2)COC/1 | MAPK9 | – | – | concentration not given, kinase construct JNK2 | relative to: control | binding | 47% |
| Cc1nc(NC(=O)N2CCC[C@H]2C(N)=O)sc1-c1ccnc(C(C)(C)C(F)(F)F)c1 | MAPK9 | KINOMEscan | – | 10 µM | – | remaining binding | 93% |
| COc1cc(-c2cncc3c2CN(C)Cc2cc(N4CCNCC4)ccc2-3)cc(OC)c1OC | MAPK9 | kinase activity | – | 1 µM, human enzyme, together with: ATP 10 µM | relative to: DMSO control | remaining activity | 118% |
| O=c1cc(-c2ccc([N+](=O)[O-])cc2)[nH]c2c(-c3ccc(Cl)cc3)c(Cc3ccccc3)nn12 | MAPK9 | thermal stability, binder, thermal proteome profiling | RD, cell lysate | 50 µM, 0.5% DMSO | relative to: DMSO vehicle | melting temperature shift | 7.1 °C |
| Cc1cc(NC(=O)c2cccc(NC(=O)/C=C/CN(C)C)c2)ccc1Nc1nccc(-c2cccnc2)n1 | MAPK9 | enzyme activity, inhibitor | – | 0.06097 µM, unit not given | relative to: vehicle | remaining activity | 0.348 |
| C[C@@H](c1ccc(-n2cnc3c(N)ncnc32)cc1)N1CCc2nn(C)c(Cc3ccccc3)c2C1=O | MAPK9 | KINOMEscan | – | 0.1 µM | relative to: DMSO control | remaining binding | 40% |
| COc1cc(F)ccc1-c1ncnc(Nc2cccc(C[S@](C)(=N)=O)c2)n1 | MAPK9 | kinase activity | – | 10 µM, together with: 10 µM ATP | – | remaining activity | 95% |
| CC[C@@H]1[C@H](F)C(=O)N[C@@H]1COc1nccc2cc(C(N)=O)c(OC)cc12 | MAPK9 | ATP probe binding, KiNativ profiling, refers to: Lys1 probe site | THP-1 cell lysate | 0.2 mM | – | inhibition | -0.3% |

Repeated from above:
| SMILES | target | test | test system | setting | how to read | endpoint | value |
| --- | --- | --- | --- | --- | --- | --- | --- |
| C[C@@H](c1ccc(-n2cnc3c(N)ncnc32)cc1)N1CCc2nn(C)c(Cc3ccccc3)c2C1=O | MAPK9 | KINOMEscan | – | 0.1 µM | relative to: DMSO control | remaining binding | 40% |
